Assay results gathered from unrelated publications.
Numbered parts are unrelated; each lists some results of a single study. Substitutions count along the parent as printed.
Chain of UniProt Q96I25 (280-401, looked up): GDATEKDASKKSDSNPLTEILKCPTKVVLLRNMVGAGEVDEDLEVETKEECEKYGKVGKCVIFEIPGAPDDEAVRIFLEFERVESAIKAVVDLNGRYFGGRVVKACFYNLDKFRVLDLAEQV
Chain of UniProt O15294 (whole entry, looked up): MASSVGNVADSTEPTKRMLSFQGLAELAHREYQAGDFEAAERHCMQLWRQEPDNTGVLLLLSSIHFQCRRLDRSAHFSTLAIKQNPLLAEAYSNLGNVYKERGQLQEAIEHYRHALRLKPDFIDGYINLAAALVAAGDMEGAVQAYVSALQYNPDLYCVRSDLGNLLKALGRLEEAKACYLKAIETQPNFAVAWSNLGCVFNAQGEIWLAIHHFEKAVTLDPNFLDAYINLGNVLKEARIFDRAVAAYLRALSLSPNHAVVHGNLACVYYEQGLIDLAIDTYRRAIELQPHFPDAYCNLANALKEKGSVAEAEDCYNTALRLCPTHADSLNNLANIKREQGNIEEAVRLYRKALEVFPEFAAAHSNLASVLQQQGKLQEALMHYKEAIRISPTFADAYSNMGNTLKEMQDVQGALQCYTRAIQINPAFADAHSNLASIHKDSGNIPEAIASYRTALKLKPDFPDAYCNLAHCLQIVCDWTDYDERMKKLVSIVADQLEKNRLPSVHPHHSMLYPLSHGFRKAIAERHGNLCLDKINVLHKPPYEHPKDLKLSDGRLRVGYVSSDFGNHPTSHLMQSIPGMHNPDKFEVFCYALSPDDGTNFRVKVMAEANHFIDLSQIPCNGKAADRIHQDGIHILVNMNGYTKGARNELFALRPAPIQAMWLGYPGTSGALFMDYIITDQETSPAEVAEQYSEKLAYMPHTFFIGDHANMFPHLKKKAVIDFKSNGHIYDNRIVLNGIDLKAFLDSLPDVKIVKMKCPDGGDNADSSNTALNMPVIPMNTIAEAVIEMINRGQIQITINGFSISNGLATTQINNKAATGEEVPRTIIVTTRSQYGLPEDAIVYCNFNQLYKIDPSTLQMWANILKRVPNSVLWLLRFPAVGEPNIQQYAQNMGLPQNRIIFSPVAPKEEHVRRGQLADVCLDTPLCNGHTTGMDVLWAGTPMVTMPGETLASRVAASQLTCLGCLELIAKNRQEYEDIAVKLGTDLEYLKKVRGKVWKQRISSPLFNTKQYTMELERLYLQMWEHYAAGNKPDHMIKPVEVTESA

Series 1 — method: protein-binding microarray; form: double-stranded DNA, one strand shown; matrix: in vitro; concentration: 250 nM; notes: 60-bp whole probe; together with: salmon DNA 0.4 mg/ml; baseline: random background probes; reading: higher = stronger binding; shared flanks, not repeated: GCCTAGCAC … GTCTTGATTCGCTTGACGCTGCTG
Target: Interferon regulatory factor 7, full length, phosphomimetic (IRF7, Homo sapiens, UniProt Q92985, residues 1-503, S101K/S471D/S472D/S475D/S476D/S477D/S483D/S484D/S487D)
Chain of UniProt Q92985 (whole entry, unmodified, looked up): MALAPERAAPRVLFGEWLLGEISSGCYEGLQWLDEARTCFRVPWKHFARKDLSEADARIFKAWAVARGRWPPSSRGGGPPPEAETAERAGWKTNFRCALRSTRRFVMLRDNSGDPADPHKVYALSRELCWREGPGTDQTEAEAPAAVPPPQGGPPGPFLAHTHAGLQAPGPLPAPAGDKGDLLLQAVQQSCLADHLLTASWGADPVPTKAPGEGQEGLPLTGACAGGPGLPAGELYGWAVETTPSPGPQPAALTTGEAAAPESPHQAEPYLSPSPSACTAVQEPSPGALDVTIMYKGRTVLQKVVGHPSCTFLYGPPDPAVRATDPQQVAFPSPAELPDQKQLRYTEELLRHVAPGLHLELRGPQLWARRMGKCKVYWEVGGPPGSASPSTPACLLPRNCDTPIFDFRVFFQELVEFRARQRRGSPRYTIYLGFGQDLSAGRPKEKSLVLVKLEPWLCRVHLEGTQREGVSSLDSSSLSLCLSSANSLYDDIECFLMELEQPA
| Oligonucleotide | log fluorescence [z-score] |
| --- | --- |
| GACGAAATGAGTTTCGAGACGTGCTAG | 3.93 |
| TTAGGGTTCCTACTGCTTTAGTGCTAG | -0.112 |
| TCAGATATAGGATAACGAGCCGTGCTA | -0.401 |
| TTAGGTCTCCTTCCCCTTTAGTGCTAG | 0.595 |
| TTAGATATCAGACTGGCTTAGTGCTAG | -0.149 |
| TTAGATATCAGACTGGGTTAGTGCTAG | -0.189 |
| TTTGGACTGGGTCTCGGTTAGTGCTAG | 0.617 |
| GACGGTCTCCTTATCCTTACGTGCTAG | -0.0776 |

Series 2 — method: RNA Bind-n-Seq; form: RNA; matrix: in vitro; concentration: 1 µM; notes: whole 134-nt RNA, ends assumed; together with: 150 mM KCl; baseline: input library; reading: higher = stronger binding
Target: Ras GTPase-activating protein-binding protein 1, RRM domain (G3BP1, Homo sapiens, UniProt Q13283)
Chain of UniProt Q13283 (whole entry, looked up): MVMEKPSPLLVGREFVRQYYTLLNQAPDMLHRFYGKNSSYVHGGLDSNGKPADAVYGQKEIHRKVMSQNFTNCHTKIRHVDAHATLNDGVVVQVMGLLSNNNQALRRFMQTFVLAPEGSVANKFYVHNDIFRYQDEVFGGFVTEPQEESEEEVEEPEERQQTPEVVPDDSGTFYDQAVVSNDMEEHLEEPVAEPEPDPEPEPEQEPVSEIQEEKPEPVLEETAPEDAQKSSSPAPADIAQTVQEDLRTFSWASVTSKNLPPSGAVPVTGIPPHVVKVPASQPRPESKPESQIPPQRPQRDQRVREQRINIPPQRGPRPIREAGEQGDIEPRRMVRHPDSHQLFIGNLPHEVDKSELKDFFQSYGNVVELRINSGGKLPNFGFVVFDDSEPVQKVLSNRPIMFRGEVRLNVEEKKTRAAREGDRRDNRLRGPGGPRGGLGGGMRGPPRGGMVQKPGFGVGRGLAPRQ
Shared flanks, not repeated: GGGAGUUCUACAGUCCGACGAUC … UGGAAUUCUCGGGUGUCAAGG
| Oligonucleotide | log2 enrichment |
| --- | --- |
| CCUCAAGUCCUGUGCUACACAUCGUAUGUACCGAAUCGGGUUGGUUGGUUGGAAAGUAUUAUGUUACGCCGUUCGGAUCUGCACUUCCAG | -0.185 |
| AGUCCUGUGCUACACAUCGUAUGUACCGAAUCGGGGUUUUGGUUUUGGGUUUUGGGGAAAGUAUUAUGUUACGCCGUUCGGAUCUGCACU | -0.186 |
| CAAGUCCUGUGCUACACAUCGUAUGUACCGAAUCGGAAAGGUUUUUUUGGUUUGGAAAGUAUUAUGUUACGCCGUUCGGAUCUGCACUUC | -0.489 |
| CCUGUGCUACACAUCGUAUGUACCGAAUCGGGUUUUUUUGGUUUUUUUGGGUUUUUUUGGAAAGUAUUAUGUUACGCCGUUCGGAUCUGC | -0.113 |
| AAGUCCUGUGCUACACAUCGUAUGUACCGAAUCGGGGAGGGGUUUUUGGGGAGGGGAAAGUAUUAUGUUACGCCGUUCGGAUCUGCACUU | 0.978 |
| AAGUCCUGUGCUACACAUCGUAUGUACCGAAUCGGGAAAGGGUGGGAAAAAAAGGGAAAGUAUUAUGUUACGCCGUUCGGAUCUGCACUU | 0.406 |
| AGUCCUGUGCUACACAUCGUAUGUACCGAAUCGGUUUUUGGGUUUUUGGUUUUUGGGGAAAGUAUUAUGUUACGCCGUUCGGAUCUGCAC | -0.135 |
| UCAAGUCCUGUGCUACACAUCGUAUGUACCGAAUCGGGGUUUGGGUUUGGUUUGGAAAGUAUUAUGUUACGCCGUUCGGAUCUGCACUUC | -0.412 |

Other studies, line by line
P1: viral docking peptide; TSVRRALFTGGSD; partner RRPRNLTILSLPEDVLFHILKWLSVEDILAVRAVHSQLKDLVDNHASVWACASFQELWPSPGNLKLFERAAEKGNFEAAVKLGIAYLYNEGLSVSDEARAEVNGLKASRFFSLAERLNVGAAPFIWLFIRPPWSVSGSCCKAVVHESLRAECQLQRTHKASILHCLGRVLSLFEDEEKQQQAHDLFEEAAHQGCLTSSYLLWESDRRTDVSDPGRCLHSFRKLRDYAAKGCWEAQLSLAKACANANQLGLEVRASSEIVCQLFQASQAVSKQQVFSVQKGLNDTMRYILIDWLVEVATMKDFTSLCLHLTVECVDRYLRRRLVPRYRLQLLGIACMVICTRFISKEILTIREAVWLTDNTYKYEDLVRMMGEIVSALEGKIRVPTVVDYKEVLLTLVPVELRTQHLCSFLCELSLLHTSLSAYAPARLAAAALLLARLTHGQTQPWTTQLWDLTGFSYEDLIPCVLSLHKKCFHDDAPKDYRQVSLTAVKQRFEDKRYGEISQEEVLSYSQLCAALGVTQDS
| Substance | target | test | system | conditions | how to read | measurement | result |
| --- | --- | --- | --- | --- | --- | --- | --- |
| SYNHRHSTSYHIDHR | OGT (Homo sapiens, UniProt O15294) | binding, phage display NGS | peptide | – | baseline: input library | minimum log2 enrichment ratio | 2.87 |
| AAAAAAAA (biotin) | Splicing factor 45, UHM domain (RBM17, Homo sapiens, UniProt Q96I25, residues 280-401) | protein domain microarray | RNA, in vitro | not given, poly(A) 8-mer RNA, whole probe, immobilized GST-fusion domains, most near background | baseline: GST loading signal, higher = stronger binding | signal ratio | 0.0392 |
| P1 G10C | CCNF, cyclin fold, Cln2 fusion (human) | yeast growth competition, sequencing | yeast | strong parent motif | baseline: not given, higher = stronger binding | normalised enrichment score | 8.16 |

For quick reference, copied from above (series 2):
| Oligonucleotide | log2 enrichment |
| --- | --- |
| AGUCCUGUGCUACACAUCGUAUGUACCGAAUCGGUUUUUGGGUUUUUGGUUUUUGGGGAAAGUAUUAUGUUACGCCGUUCGGAUCUGCAC | -0.135 |
| AGUCCUGUGCUACACAUCGUAUGUACCGAAUCGGGGUUUUGGUUUUGGGUUUUGGGGAAAGUAUUAUGUUACGCCGUUCGGAUCUGCACU | -0.186 |
